{"data": "Measured values collected from several papers", "note": "Compare with care: the assays were run in different laboratories. Several values in a cell are separate wells, animals, samples, runs or records. ± marks the error that the study gave."}
{"Structure (SMILES)": "Cc1sc2c(c1C)C(c1ccc(Cl)cc1)=N[C@@H](CC(N)=O)c1nnc(C)n1-2", "cell line": "HBL-1", "setting": "1 µM, 120 h", "endpoint": "viability", "result": "14.6%"}
{"Structure (SMILES)": "CC(C)=CCC[C@](C)(O)[C@H]1CC[C@]2(C)[C@@H]1[C@H](O)C[C@@H]1[C@@]3(C)CC[C@H](O)C(C)(C)[C@@H]3[C@@H](O[C@@H]3O[C@H](CO)[C@@H](O)[C@H](O)[C@H]3O)C[C@]12C", "cell line": "HepG2", "assay": "cell viability, CCK-8", "setting": "50 µM", "how to read": "higher = more viable cells", "endpoint": "optical density", "result": "0.315 a.u. and 0.336 a.u. and 0.368 a.u. and 0.358 a.u. and 0.308 a.u. and 0.312 a.u."}
{"Structure (SMILES)": "Cn1cc2cc(C(F)(F)c3nnc4ccc(-c5cnn(C6CC6)c5)nn34)c(F)cc2n1", "cell line": "MKN-45", "assay": "annexin V/PI flow cytometry", "setting": "20 nM, 48 h", "endpoint": "early apoptotic cells", "result": "7.67% and 13.4% and 8.67%"}
{"Structure (SMILES)": "Oc1ccc(C2(c3ccc(O)cc3)c3ccccc3-c3ccccc32)cc1", "cell line": "HepG2 spheroids", "assay": "Hoechst flow cytometry", "setting": "1 µM, 24 h", "endpoint": "G2 phase cells", "result": "20.9 ± 3.17%"}
{"Structure (SMILES)": "CC(C)N1CCC(NC2CCN(c3cccc(-c4cc5cc(F)ccc5[nH]4)c3)CC2)CC1", "cell line": "RXF 393", "endpoint": "CC50", "result": "6.1 µM"}
{"Structure (SMILES)": "CCN(CC)c1ccc(C=NNC(=O)CSc2nc3ccccc3c(=O)n2Cc2ccc(S(N)(=O)=O)cc2)c(O)c1", "cell line": "NCI-H23", "assay": "NCI five-dose screen", "endpoint": "CC50", "result": "> 100 µM"}
{"Structure (SMILES)": "Cn1cncc1C1=CN(c2ncnc3[nH]cnc23)CCS1", "cell line": "U-251", "setting": "CNS cancer", "endpoint": "CC50", "result": "> 200 µM"}
{"Structure (SMILES)": "NCC(O)c1ccc(O)cc1 (stereo not shown)", "cell line": "human iPSC-derived cardiomyocytes", "assay": "MyBP-C/MYH ratio, plate-normalised SD score", "setting": "concentration not given, primary screen", "how to read": "direction not given", "endpoint": "activity score", "result": 4.3}
{"Structure (SMILES)": "Nc1ncnc2c1ncn2[C@@H]1O[C@@H]2COP(=O)(O)O[C@H]3[C@@H](O)[C@H](n4cnc5c(=O)[nH]cnc54)O[C@@H]3COP(=O)(O)O[C@H]2[C@H]1O", "cell line": "HFF-1", "assay": "RNA sequencing Reactome analysis, measured: Reactome R-HSA-9683610 maturation of nucleoprotein", "setting": "with: West Nile virus infection", "how to read": "baseline: West Nile virus infected cells, upregulated pathway", "endpoint": "pathway fold enrichment", "result": 11.2}
{"Structure (SMILES)": "CC[C@H](C)[C@H](N)C(=O)N[C@@H](CC(C)C)C(=O)NCC(=O)N[C@@H](CCCCN)C(=O)N[C@H](C(=O)N[C@@H](Cc1c[nH]c2ccccc12)C(=O)N[C@@H](CCC(=O)O)C(=O)NCC(=O)N[C@H](C(=O)N[C@@H](CCCCN)C(=O)N[C@@H](CO)C(=O)N[C@@H](CC(C)C)C(=O)N[C@@H](Cc1ccccc1)C(=O)N[C@@H](CS)C(N)=O)[C@@H](C)CC)[C@@H](C)CC", "cell line": "human red blood cells", "setting": "pH 7.4", "how to read": "baseline: Triton X-100", "endpoint": "EC50", "result": "57.5 µM"}
{"Structure (SMILES)": "COc1c(CCC[P+](c2ccccc2)(c2ccccc2)c2ccccc2)cc2c(c1OC)OCO2.[I-]", "cell line": "UO-31", "assay": "SRB", "endpoint": "GI50", "result": "-4.93 log M"}
{"Structure (SMILES)": "CC[C@H](C)[C@H](NC(=O)[C@H](CO)NC(=O)[C@H](CC(C)C)NC(=O)[C@H](Cc1ccccc1)NC(=O)CN)C(=O)N[C@@H](CC(C)C)C(=O)N[C@@H](CCCCN)C(=O)N[C@@H](CCCCN)C(=O)N[C@H](C(=O)N[C@@H](CC(C)C)C(=O)N[C@@H](CCCCN)C(=O)N[C@H](C(=O)N[C@@H](CCSC)C(=O)N[C@@H](C)C(=O)N[C@@H](Cc1c[nH]cn1)C(=O)N[C@@H](CCSC)C(=O)N[C@@H](CCCCN)C(=O)N[C@@H](CS)C(N)=O)C(C)C)C(C)C", "cell line": "human red blood cells", "setting": "pH 5.5", "how to read": "baseline: Triton X-100", "endpoint": "EC50", "result": "12 µM"}
{"Structure (SMILES)": "CN1CCN(S(=O)(=O)c2cc([N+](=O)[O-])ccc2N(CCOS(C)(=O)=O)CCOS(C)(=O)=O)CC1", "cell line": "sample DB T-ALL PDX cells", "assay": "cell viability", "test system": "ex vivo", "setting": "48 h, with: AKR1C3 inhibitor 1 µM, 1 h pretreatment", "endpoint": "IC50", "result": "3.63 µM"}
{"Structure (SMILES)": "CC(C)C[C@@H]1NC(=O)[C@@H](NC(=O)OCc2ccccc2)Cc2cn(nn2)CCCNC(=O)CC[C@@H](C=O)NC1=O", "cell line": "HG23 norovirus replicon cells", "assay": "viral replication, qRT-PCR", "setting": "48 h", "endpoint": "EC50", "result": "81.5 µM"}
{"Structure (SMILES)": "COc1c(C)c2c(c(O)c1C/C=C(\\C)CCC(=O)O)C(=O)OC2", "cell line": "colon cancer cell lines", "assay": "cell proliferation", "setting": "average over lines", "endpoint": "IC50", "result": "0.589 µM"}
{"Structure (SMILES)": "CC[C@H](C)[C@H](NC(=O)[C@H](CC(C)C)NC(=O)[C@H](C)NC(=O)[C@H](CC(C)C)NC(=O)[C@@H](N)Cc1ccccc1)C(=O)N[C@@H](CC(C)C)C(=O)N[C@@H](CCCNC(=N)N)C(=O)N[C@@H](CCCCN)C(=O)N[C@H](C(=O)N[C@H](C(=O)N[C@H](C(=O)N[C@@H](C)C(=O)N[C@@H](CC(C)C)C(=O)N[C@@H](CS)C(N)=O)[C@@H](C)O)C(C)C)[C@@H](C)CC", "cell line": "human red blood cells", "setting": "pH 5.5", "how to read": "baseline: Triton X-100", "endpoint": "EC50", "result": "38 µM"}
{"Structure (SMILES)": "CCn1cnc2c(Nc3cccc(Cl)c3)nc(N[C@@H]3CCCC[C@@H]3N)nc21", "cell line": "HeLa expressing Ub(G76V)-GFP", "assay": "Ub(G76V)-GFP degradation, cycloheximide chase", "setting": "12 µM", "endpoint": "inhibition", "result": "72%"}
{"Structure (SMILES)": "N#Cc1c(Cl)c(Cl)c(Cl)c(C#N)c1Cl", "cell line": "human iPSC-derived cardiomyocytes", "assay": "MyBP-C/MYH ratio, plate-normalised SD score", "setting": "concentration not given, primary screen", "how to read": "direction not given", "endpoint": "activity score", "result": 3.8}
{"Structure (SMILES)": "CS(=O)(=O)c1ccc(-c2nnc(/C=C/c3nnc(-c4ccc(C#N)cc4)o3)n2-c2ccccc2Cl)nc1", "cell line": "Apc Q1405X mutant organoids", "assay": "organoid viability, AlamarBlue", "test system": "mouse small intestinal organoids", "setting": "6 days, Tnks genotype Tnks-/-", "endpoint": "Hill slope", "result": -2.21}
{"Structure (SMILES)": "O=S(=O)(c1ccc(O)cc1)c1ccc(O)cc1", "cell line": "HepG2 spheroids", "assay": "Hoechst flow cytometry", "setting": "40 µM, 24 h", "endpoint": "G2 phase cells", "result": "19.9 ± 3.82%"}
{"Structure (SMILES)": "CC(C)C[C@H](NC(=O)[C@H](CCc1ccccc1)NC(=O)CN1CCOCC1)C(=O)N[C@@H](Cc1ccccc1)C(=O)N[C@@H](CC(C)C)C(=O)[C@@]1(C)CO1", "cell line": "patient tumour conditionally reprogrammed cells", "assay": "RNA-seq, measured: IL36B mRNA", "test system": "human", "setting": "concentration not given", "how to read": "baseline: DMSO", "endpoint": "fold change", "result": -3850}
{"Structure (SMILES)": "O=C1N(Cc2ccccc2Cl)c2ccccc2C12NN=C(c1ccccc1)S2 (stereo not shown)", "cell line": "MDA-MB-468", "assay": "gene expression array, measured: MT1E mRNA", "setting": "10 µM, 12 h", "how to read": "baseline: untreated, down", "endpoint": "fold change", "result": 3.25}
{"Structure (SMILES)": "Cc1cnc2ccc3c(nc(N)n3C)c2n1", "cell line": "BALB/c 3T3", "setting": "1 µM", "how to read": "baseline: solvent control", "endpoint": "relative colony forming efficiency", "result": "99 ± 10%"}
{"Structure (SMILES)": "N[C@@H]1C[C@H]1c1ccccc1", "cell line": "HBL-1", "setting": "1 µM, 120 h", "endpoint": "viability", "result": "102%"}
{"Structure (SMILES)": "C/C=C(/C)C(=O)O[C@H]1C(C)=C2[C@H]([C@@H]1OC(=O)CCCCCCC)[C@@](C)(OC(C)=O)C[C@H](OC(=O)CCC)[C@@]1(O)[C@H]2OC(=O)[C@@]1(C)O", "cell line": "HEK-293T", "assay": "RNA-seq GSEA, measured: Hallmark estrogen response late", "setting": "500 nM, 6 h", "how to read": "direction not given", "endpoint": "normalized enrichment score", "result": 1.42}
{"Structure (SMILES)": "O=C(N/N=C/c1ccc([N+](=O)[O-])o1)c1cc([N+](=O)[O-])cc([N+](=O)[O-])c1O", "cell line": "human iPSC-derived cardiomyocytes", "assay": "MyBP-C/MYH ratio, plate-normalised SD score", "setting": "concentration not given, primary screen", "how to read": "direction not given", "endpoint": "activity score", "result": 3.6}
{"Structure (SMILES)": "O=c1cc(-c2ccccc2)oc2c(O)c(O)ccc12", "cell line": "induced SH-SY5Y Aβ-GFP cells", "setting": "5 µM", "endpoint": "total neurite length", "result": "31.8 to 34 µm"}
{"Structure (SMILES)": "CC[C@@]1(O)C(=O)OCc2c1cc1n(c2=O)Cc2cc3ccccc3nc2-1", "cell line": "BT-16", "assay": "cell viability, MTT", "setting": "10 µM, 72 h", "endpoint": "inhibition", "result": "94.3%"}
{"Structure (SMILES)": "Nc1ncc(-c2nc(N3CCOCC3)nc(N3CCOCC3)n2)c(C(F)F)n1", "cell line": "panel of 66 cancer cell lines", "assay": "cell growth", "setting": "72 h, panel mean", "endpoint": "GI50", "result": "0.249 µM"}
{"Structure (SMILES)": "Cc1nn(-c2nc3c(F)cc(F)cc3s2)c(O)c1C(c1ccc(C(F)(F)F)cc1)c1c(C)nn(-c2nc3c(F)cc(F)cc3s2)c1O", "cell line": "RAW-ISG", "assay": "CCK-8", "setting": "100 µM", "endpoint": "viability", "result": "7.49% and 7.47% and 7.86% and 13.7% and 7.71%"}
{"Structure (SMILES)": "CN1CCN(C2(CNC3CCN(c4cccc(-c5cc6cc(F)ccc6[nH]5)c4)CC3)CCC2)CC1", "cell line": "NCI-H322M", "endpoint": "CC50", "result": "6.69 µM"}
{"Structure (SMILES)": "COc1cc(CCC[P+](c2ccccc2)(c2ccccc2)c2ccccc2)c(OC)c2c1OCO2.[I-]", "cell line": "NCI-H322M", "assay": "SRB", "endpoint": "TGI", "result": "-4.54 log M"}
{"Structure (SMILES)": "Cn1cc(C2=C(c3cn(C4CCN(Cc5ccccn5)CC4)c4ccccc34)C(=O)NC2=O)c2ccccc21", "cell line": "iCell Cardiomyocytes (hiPSC-derived)", "assay": "xCELLigence Cardio impedance", "setting": "concentration not given, 2 h", "how to read": "baseline: control", "endpoint": "beat amplitude", "result": "92.7%"}
{"Structure (SMILES)": "COc1ccc([C@H]2c3[nH]c4ccc(Cl)cc4c3CCN2C(=O)Oc2ccc(Cl)cc2)cc1", "cell line": "human dermal fibroblasts with PBMC", "assay": "cytokine secretion, measured: sIL-6", "setting": "0.01 µM, 48 h", "endpoint": "inhibition", "result": "91%"}
{"Structure (SMILES)": "COc1ccc2c(c1)[nH]c1c(C)nccc12", "cell line": "DU-145", "assay": "bisulfite pyrosequencing, measured: RASSF1A promoter CpG site 15", "setting": "concentration not given", "how to read": "baseline: vehicle", "endpoint": "methylation reduction", "result": "2.06%"}
{"Structure (SMILES)": "CC[C@H]1CN2CC[C@H]1C[C@@H]2[C@@H](O)c1ccnc2ccc(OC)cc12", "cell line": "human iPSC-derived cardiomyocytes", "assay": "MyBP-C/MYH ratio, plate-normalised SD score", "setting": "concentration not given, primary screen", "how to read": "direction not given", "endpoint": "activity score", "result": 3.8}
{"Structure (SMILES)": "c1ccc([C@@H]2C[C@H]2NC2CCNCC2)cc1", "cell line": "HBL-1", "setting": "0.5 µM, 120 h", "endpoint": "viability", "result": "135%"}
{"note": "Repeated from above:"}
{"Structure (SMILES)": "CC(C)N1CCC(NC2CCN(c3cccc(-c4cc5cc(F)ccc5[nH]4)c3)CC2)CC1", "cell line": "RXF 393", "endpoint": "CC50", "result": "6.1 µM"}
{"Structure (SMILES)": "Cn1cncc1C1=CN(c2ncnc3[nH]cnc23)CCS1", "cell line": "U-251", "setting": "CNS cancer", "endpoint": "CC50", "result": "> 200 µM"}
{"Structure (SMILES)": "CC(C)C[C@@H]1NC(=O)[C@@H](NC(=O)OCc2ccccc2)Cc2cn(nn2)CCCNC(=O)CC[C@@H](C=O)NC1=O", "cell line": "HG23 norovirus replicon cells", "assay": "viral replication, qRT-PCR", "setting": "48 h", "endpoint": "EC50", "result": "81.5 µM"}
{"Structure (SMILES)": "c1ccc([C@@H]2C[C@H]2NC2CCNCC2)cc1", "cell line": "HBL-1", "setting": "0.5 µM, 120 h", "endpoint": "viability", "result": "135%"}
